Results of several laboratories.
Parts stem from different laboratories: compare values within a part only.

Set 1
Target: RNA binding protein fox-1 homolog 2, RRM domain, GST-SBP tag (RBFOX2, Homo sapiens, UniProt O43251-10, residues 100-194)
Method: RNA Bind-n-Seq
Molecule type: RNA
Medium: in vitro
Tested at: 365 nM
Notes: natural RNA segment, single round, ends assumed
Baseline: no-protein control
Reading: higher = stronger binding
All sequences stand within: GGGAGUUCUACAGUCCGACGAUC … UGGAAUUCUCGGGUGCCAA
Residues (chain): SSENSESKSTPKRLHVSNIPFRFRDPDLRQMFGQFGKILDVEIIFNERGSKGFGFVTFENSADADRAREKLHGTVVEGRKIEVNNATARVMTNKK
Strand | RBNS enrichment (R)
GCCAGUGAGGAAAGGGGAGAGAGCAGAGCUUGCUGUCAGAGGCCAGGCUCCCAGUGCAGCCUCCUCUUGCUACGCCAUGCCACCCCCAUUCACAGGGAAACCUCUUUCCU | 0.221
UAUUCUCACGGGCAGUAGCUGUGGUGAGGUGGGUUUUCUUCCCAUCACUGGAGCACCAGGCACGAACCCACCUGCUGAGAGACCCAAGGAGGAAAAACAGACAAAAACAG | 0.46
AUAUCAGACUCCACAUAUGGCCUUAUUAAUUGCUGUAGGAAGCAUCUUGGGACUGGAAGAUAUGAUUCCCUUUCCAAUCAUCCCUUCUCUCUCCUGUCUAUACAUACACA | 0.607
GUGUGGCGAGAGCCUGGGCCAGCCCACAGCGUUCCUAGUCAGGCAGCCACACCUUGGUCCUCAUCUUGGUCCCUUCCAAUCUGAAACCUCGUGCCUGGCUCGUCUGCCAC | 0.366
ACAUCGUAUGUACAAUGCAAUCAUUUCAUACUUUAAACUGGUCAAAAAACUAAUUGUGAUUUCUAGUCUUGCAAAGCUGUAUGUAGUUAGAUGAUGUGACAACCUCUAAU | 0.412
CAGUAGUGAGGCCUGAGGACCCAUCUGAUGCCCAGGCUCUUCCAGCCACUGUCUAGACCUCCUCCAUCAGAUGCCUAGGCCUCCUCCAUCAGAUACCUGGGCCUCCUCCA | 0.209
AAGAUUAUAUUUGAGGAUUGUAGCAGUUUCUUUGUUUCAGAUUGUCAGCUGACUUAAAAUGUUUGUGACUUUCCUGUAAGGGCAGCCAGGGAUAAAAGUAUCCUUUGUUC | 0.254
GAAUCAGGACAGUACCUGUACAGGCACGGGGACCCGCUCCGUCCGUGCGCCGCCCUAUAUUGAGGGCUCCAGCUCUCCCUUGGUUUUUGAAAGGGGUUUAUGUAUAAAUA | 0.38

Set 2
Target: Interferon regulatory factor 7, full length, phosphomimetic (IRF7, Homo sapiens, UniProt Q92985, residues 1-503, S101K/S471D/S472D/S475D/S476D/S477D/S483D/S484D/S487D)
Method: protein-binding microarray
Molecule type: double-stranded DNA, one strand shown
Medium: in vitro
Tested at: 250 nM
Notes: 60-bp whole probe
Added: salmon DNA 0.4 mg/ml
Baseline: random background probes
Reading: higher = stronger binding
All sequences stand within: GCCTAGCAC … GTCTTGATTCGCTTGACGCTGCTG
Residues (chain): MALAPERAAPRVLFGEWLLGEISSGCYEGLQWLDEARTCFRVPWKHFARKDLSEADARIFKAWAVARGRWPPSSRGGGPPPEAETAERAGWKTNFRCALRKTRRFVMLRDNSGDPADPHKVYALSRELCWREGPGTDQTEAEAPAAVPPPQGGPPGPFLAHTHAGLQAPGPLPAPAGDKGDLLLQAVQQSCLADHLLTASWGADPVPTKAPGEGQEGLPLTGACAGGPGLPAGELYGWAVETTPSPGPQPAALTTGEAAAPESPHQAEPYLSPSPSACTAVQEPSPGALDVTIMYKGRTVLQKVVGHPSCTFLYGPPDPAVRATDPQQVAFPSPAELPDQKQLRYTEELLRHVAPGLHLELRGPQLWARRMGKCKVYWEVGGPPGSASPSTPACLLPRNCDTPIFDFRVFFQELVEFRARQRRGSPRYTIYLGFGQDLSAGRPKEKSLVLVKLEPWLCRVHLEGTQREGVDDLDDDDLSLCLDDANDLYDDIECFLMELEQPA
Strand | log fluorescence
GACGGACTGGGTTATCGGGACGTGCTA | -0.422 z-score
GACGATATCAGTCTCGAAACGTGCTAG | 0.742 z-score
TCAATGATCCAGTTTTACACTGTGCTA | 0.0375 z-score
ACTTGTATTTGTCCCTATTTGTGCTAG | 2.05 z-score
TTAGGACTGGACACTGGGTTCGTGCTA | -0.791 z-score

Set 3
Target: Prothrombin, mature alpha-thrombin (F2, Homo sapiens, UniProt P00734)
Method: aptamer microarray, sandwich
Molecule type: DNA with 2'F-ANA
Medium: in vitro
Tested at: 200 nM
Notes: whole 15-mer aptamer, many near background
Added: Cy3 exosite-II aptamer, 400 nM
Reading: higher = stronger binding
Strand: GGTTGGTGTGGTTGG
Modification | mean fluorescence intensity
2'F-ANA at 2 5 8 9 10 13 14 | 46 a.u.
2'F-ANA at 3 7 8 11 13 14 15 | 584 a.u.
2'F-ANA at 2 3 6 7 10 12 15 | 391 a.u.
2'F-ANA at 1 3 4 8 10 11 14 15 | 49.6 a.u.
2'F-ANA at 1 2 6 8 9 10 13 14 15 | 49.4 a.u.

Further values, each from its own experiment
Substance | target | assay | test system | setting | scale | measurement | value
PhoQ, residues 284 288 289 292 302 303 STVVAA | PhoP, residues 12 14 15 18 19 SYFRT (Escherichia coli, UniProt P23836) | Sort-seq, measured: YFP reporter | E. coli | PhoQ-PhoP variant library, added: 10 µM Mg2+ | baseline: high Mg2+ state, higher = stronger signaling | fold induction | 1.36
